Measurements collected from several papers.
Lines come from different studies, so protocols differ. Numbers after ± are the reported error.

`CN(C)C(CNC(=O)Nc1cc(C(F)(F)F)ccc1N1CCOCC1)c1ccncc1` (stereo not drawn) gave a phosphorus of 8 mg/dL (mouse, serum; intraperitoneal, 180 mg/kg single dose).
Under “excretion in urine and feces”, `CC1N=C(c2ccccc2F)c2cc(Br)ccc2-n2cnc(C(=O)OC3OC(CO)C(O)C(O)C3O)c21` (stereo not drawn) is recorded as 2.8 ± 0.5% (Swiss Webster mouse; oral, 750 µg of parent drug, 0 to 48 h; reference: dose).
`COc1cc(NC(=O)C(=O)c2c(C)n(Cc3ccc(Cl)cc3)c3ccc(C)cc23)ccn1` has a bioavailability of 20.8% (female cynomolgus monkey, plasma; oral, 10 mg/kg).
Under “discontinuation due to adverse events”, `CC(C)[C@H](NC(=O)CNC(=O)[C@H](CCC(N)=O)NC(=O)[C@H](C)N)C(=O)O` is recorded as 0% (human; 3 mg/kg single dose).
`CCN1CCCC1CNC(=O)c1cc(Br)cc(OC)c1O[11CH3]` (stereo not drawn) gave a K1 of 0.54 ± 0.1 mL/cm³/min (multiple-injection PET; rhesus monkey, brain, regional mean).
For `CC(C)C[C@H](NC(=O)[C@H](Cc1ccc(O)cc1)NC(=O)[C@H](Cc1c[nH]cn1)NC(=O)[C@@H](NC(=O)[C@H](CC(C)C)NC(=O)[C@H](C)NC(=O)[C@H](C)NC(=O)[C@H](CCCCN)NC(=O)CNC(=O)[C@@H](NC(=O)[C@H](Cc1c[nH]cn1)NC(=O)[C@H](CCCCN)NC(=O)CNC(=O)[C@@H](NC(=O)[C@H](Cc1c[nH]cn1)NC(=O)[C@H](C)NC(=O)[C@H](C)NC(=O)[C@H](CCCCN)NC(=O)[C@H](CCCCN)NC(=O)[C@H](Cc1ccccc1)NC(=O)[C@H](Cc1ccccc1)NC(=O)[C@H](CO)NC(=O)CNC(=O)[C@H](Cc1c[nH]c2ccccc12)NC(=O)CN)C(C)C)C(C)C)[C@@H](C)O)C(N)=O`, “acute toxic concentration” read 5 µg/mL (zebrafish embryos; 1 h, 4, 28, 52 hpf).
`CC(C)C[C@@H](N)C(=O)NCC(=O)N[C@H](C)C(=O)N[C@H](CO)C(=O)N[C@H](Cc1c[nH]c2ccccc12)C(=O)N[C@H](Cc1c[nH]cn1)C(=O)N[C@H](CCCNC(=N)N)C(=O)N1CCC[C@@H]1C(=O)N[C@H](CC(=O)O)C(=O)N[C@H](CCCCN)C(=O)N[C@H](CS)C(=O)N[C@H](CS)C(=O)N[C@H](CC(C)C)C(=O)NCC(=O)N[C@H](Cc1ccc(O)cc1)C(=O)N[C@H](CCC(N)=O)C(=O)N[C@H](CCCCN)C(=O)N[C@H](CCCNC(=N)N)C(=O)N1CCC[C@@H]1C(=O)N[C@H](CC(C)C)C(=O)N1CCC[C@@H]1C(N)=O` has a measured concentration of 5570 ± 448 ng/mL (LC-MS/MS; rat plasma; 5000 ng/mL, 30 days, -80 °C, storage).
`CC[C@@H]1C[C@]1(NC(=O)[C@@H]1C[C@@]2(CN1C(=O)[C@@H](NC(=O)[C@@H](NC(=O)[C@@H]1CCCCN1C(C)C)C1CCCCC1)C(C)(C)C)C(C)(C)C21CCC1)C(=O)NS(=O)(=O)N1CCCC1`: “subjects with adverse event” 0% (measured: vomiting; human fed; oral, 100 mg single dose).
For `COc1ccnc(-c2cc(OC)ccn2)c1.O.[C-]#[O+].[C-]#[O+].[C-]#[O+].[Re+]`, the capacity factor was 3.6 (RP-HPLC C18 column, measured: aqua complex; MeCN:water 40:60, 0.1% TFA; isocratic elution).
With `CCC[C@@H]1O[C@@H]2C[C@H]3[C@@H]4C[C@H](F)C5=CC(=O)CC[C@]5(C)[C@@]4(F)[C@@H](O)C[C@]3(C)[C@]2(C(=O)CO)O1` the clearance was 74.5 mL/min/kg (CD1 mice, plasma; intravenous, 0.15 mg/kg, with: budesonide 0.2 mg/kg).
`COc1cc(-c2cncc(-c3ccc(N4CCN([11CH3])CC4)cc3)c2C)cc(OC)c1OC` gave a peak SUV of 2 ± 0.3 (PET; Sprague-Dawley rat male, brain pons; intravenous).
For `[11CH3]n1c(=O)n(CCCO)c(=O)c2c1nc(Oc1cccc(OC(F)(F)F)c1)n2Cc1ccc(Cl)cc1`, the tracer uptake was 1.26 ± 0.28 %ID/g (ex vivo biodistribution; Sprague Dawley rat, spleen; 5 min post injection).
The tissue concentration of `C/C=C/C=C/C/C=C/CCCCCCCc1cccc(O)c1O` is reported as 18400 ± 1340 ng/g (female Kunming mice, tumour-bearing, tumor; intravenous, 10 mg/kg, 12 h).
`O=c1cc(-c2ccccc2)oc2c(Br)c(O)c(O)c(O)c12` gave a Vd of 0.108 L (C57BL/6 mouse, plasma; intravenous, 10 mg/kg, single dose).
With `O=C(c1ccc(F)cc1)C1CCN(C2Cc3c(cccc3OCC[18F])CC2O)CC1` (single isomer, unassigned; (-)) the tissue uptake was 1.2 ± 0.347 %ID/g (Sprague-Dawley rat, male, pancreas; intravenous, dose not given, 30 min).
With `CCNc1cc2[o+]c3cc(NCC)c(C)cc3c(-c3ccccc3C(=O)OCCOCC[18F])c2cc1C` the tissue uptake was 3.16 ± 1.3 %ID/g (rat, spleen; 15 min).
With `Cc1ccc(/C=C/C(=O)O)cc1-c1cc2c(cc1C)C(C)(C)CCC2(C)C` the blood cholesterol was 50 ± 11 mg/dL (Sprague-Dawley rat, male; oral, 100 mg/kg, 24 h, sesame oil vehicle).
With `COc1cc2ncnc(Oc3cccc(N[11C](=O)Nc4cc(C(C)(C)C(F)(F)F)on4)c3)c2cc1OC` the intact fraction was 7.82 ± 0.26% (female Balb/c nude mice, plasma; intravenous, 5 min; reference: radioactivity).
Under tolerability, `CCO[C@H]1[C@H](O)[C@@H](N)[C@@H](O[C@H]2[C@H](O[C@@H]3O[C@H](CO)[C@@H](O[C@H]4O[C@@H](CN)[C@@H](O)[C@H](O)[C@H]4N)[C@H]3O)[C@@H](O)[C@H](N)C[C@@H]2N)O[C@@H]1CO` is recorded as “not toxic” (guinea pig; chronic ototoxicity study).
For `COc1cc2c3cc(OC)c(OC)cc3c3c[n+]4c(cc3c2cc1OC)CCCC4`, the CC50 was over 100 µM (swine cells; 24 (unit not given)).
The tissue concentration of `COC(=O)C[C@](O)(CCCC(C)(C)OC(C)=O)C(=O)O[C@@H]1C(OC)=C[C@]23CCCN2CCc2cc4c(cc2[C@H]13)OCO4` is reported as 879 ng/mL (CD1 mouse, stomach; oral, 1 mg/kg, 0.5 h).
`CC(C)C[C@H](NC(=O)[C@H](CCCCN)NC(=O)[C@H](CCC(=O)O)NC(=O)[C@H](C)NC(=O)[C@@H](NC(=O)[C@H](CCCCN)NC(=O)[C@H](CC(=O)O)NC(=O)[C@H](Cc1ccc(O)cc1)NC(=O)[C@H](Cc1ccccc1)NC(=O)[C@H](C)NC(=O)[C@H](CCCCN)NC(=O)[C@H](CC(C)C)NC(=O)[C@H](Cc1c[nH]c2ccccc12)NC(=O)[C@@H](N)CC(=O)O)C(C)C)C(=O)N[C@@H](CCCCN)C(=O)N[C@@H](CCC(=O)O)C(=O)N[C@@H](C)C(=O)N[C@@H](Cc1ccccc1)C(=O)N1CCC[C@H]1C(=O)N[C@@H](CC(=O)O)C(=O)N[C@@H](Cc1c[nH]c2ccccc12)C(=O)N[C@@H](C)C(=O)N[C@@H](CCCCN)C(=O)N[C@@H](C)C(=O)N[C@@H](C)C(=O)N[C@@H](Cc1ccc(O)cc1)C(=O)N[C@@H](CC(=O)O)C(=O)N[C@@H](CCCCN)C(=O)N[C@@H](C)C(=O)N[C@@H](C)C(=O)N[C@@H](CCC(=O)O)C(=O)N[C@@H](CCCCN)C(=O)N[C@@H](C)C(=O)N[C@@H](CCCCN)C(=O)N[C@@H](CCC(=O)O)C(=O)N[C@@H](C)C(=O)N[C@@H](C)C(=O)O`: “volume of distribution at steady state” 0.052 L/kg (cynomolgus monkey male, plasma; intravenous infusion, 8 mg/kg every other day, day 27).
`[3H]c1sc(C)nc1C=C(C)C1CC2C(CCCC(C)C(O)C(C)C(=O)C(C)(C)C(O)CC(=O)O1)N2CCO` (stereo not drawn) has a plasma concentration of 55.2 ± 4.7 ng/mL (CD2F1 mice, plasma; intravenous, 2.2 nmol/kg, 2 h).
`CCCCCCCCCCCCC(=O)O.O=C1CCCC2C3CCCN4CCCC(CN12)C34` (stereo not drawn) — result for “critical micelle concentration”: 0.00255 mol/kg (water; concentration not given, 313.15 K).

A few entries again:
`CC(C)C[C@H](NC(=O)[C@H](CCCCN)NC(=O)[C@H](CCC(=O)O)NC(=O)[C@H](C)NC(=O)[C@@H](NC(=O)[C@H](CCCCN)NC(=O)[C@H](CC(=O)O)NC(=O)[C@H](Cc1ccc(O)cc1)NC(=O)[C@H](Cc1ccccc1)NC(=O)[C@H](C)NC(=O)[C@H](CCCCN)NC(=O)[C@H](CC(C)C)NC(=O)[C@H](Cc1c[nH]c2ccccc12)NC(=O)[C@@H](N)CC(=O)O)C(C)C)C(=O)N[C@@H](CCCCN)C(=O)N[C@@H](CCC(=O)O)C(=O)N[C@@H](C)C(=O)N[C@@H](Cc1ccccc1)C(=O)N1CCC[C@H]1C(=O)N[C@@H](CC(=O)O)C(=O)N[C@@H](Cc1c[nH]c2ccccc12)C(=O)N[C@@H](C)C(=O)N[C@@H](CCCCN)C(=O)N[C@@H](C)C(=O)N[C@@H](C)C(=O)N[C@@H](Cc1ccc(O)cc1)C(=O)N[C@@H](CC(=O)O)C(=O)N[C@@H](CCCCN)C(=O)N[C@@H](C)C(=O)N[C@@H](C)C(=O)N[C@@H](CCC(=O)O)C(=O)N[C@@H](CCCCN)C(=O)N[C@@H](C)C(=O)N[C@@H](CCCCN)C(=O)N[C@@H](CCC(=O)O)C(=O)N[C@@H](C)C(=O)N[C@@H](C)C(=O)O`: “volume of distribution at steady state” 0.052 L/kg (cynomolgus monkey male, plasma; intravenous infusion, 8 mg/kg every other day, day 27).
The tissue concentration of `C/C=C/C=C/C/C=C/CCCCCCCc1cccc(O)c1O` is reported as 18400 ± 1340 ng/g (female Kunming mice, tumour-bearing, tumor; intravenous, 10 mg/kg, 12 h).
For `COc1ccnc(-c2cc(OC)ccn2)c1.O.[C-]#[O+].[C-]#[O+].[C-]#[O+].[Re+]`, the capacity factor was 3.6 (RP-HPLC C18 column, measured: aqua complex; MeCN:water 40:60, 0.1% TFA; isocratic elution).
